Results pooled from the literature.
Numbered parts are unrelated; each lists some results of a single study. Values joined by “and” are separate records of one study, mostly repeats; a detail may differ.
UniProt Q01959, sequence (whole entry, looked up): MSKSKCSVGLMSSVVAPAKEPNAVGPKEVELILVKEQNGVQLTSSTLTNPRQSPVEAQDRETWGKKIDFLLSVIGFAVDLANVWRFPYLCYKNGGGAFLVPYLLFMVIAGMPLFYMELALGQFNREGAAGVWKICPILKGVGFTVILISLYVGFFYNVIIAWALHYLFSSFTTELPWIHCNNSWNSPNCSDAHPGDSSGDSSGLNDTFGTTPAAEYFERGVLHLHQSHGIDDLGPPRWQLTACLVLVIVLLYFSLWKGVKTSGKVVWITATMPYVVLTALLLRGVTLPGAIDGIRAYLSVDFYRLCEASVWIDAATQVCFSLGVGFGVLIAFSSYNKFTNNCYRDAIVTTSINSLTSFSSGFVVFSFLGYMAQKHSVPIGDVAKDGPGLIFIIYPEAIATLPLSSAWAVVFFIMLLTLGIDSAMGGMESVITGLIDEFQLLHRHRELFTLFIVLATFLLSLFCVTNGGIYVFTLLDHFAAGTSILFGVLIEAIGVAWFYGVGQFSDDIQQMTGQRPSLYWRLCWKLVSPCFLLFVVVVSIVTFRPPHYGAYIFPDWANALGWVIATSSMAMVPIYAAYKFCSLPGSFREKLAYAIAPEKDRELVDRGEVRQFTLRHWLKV

Study 1
SMILES: CC(C)n1cnc(-c2ccc(F)cc2)c1-c1ncc(C(=O)Nc2ccc(N3CCN(C)CC3)cc2)[nH]1
Method: phase 2a trial
Host: idiopathic pulmonary fibrosis patients
dose | notes | patients with aortic valve incompetence [%]
60 mg once daily | adverse event grade 5 | 0
30 mg once daily | adverse event grade 3 | 0
60 mg once daily | adverse event grade 1 | 0
dose not given | adverse event grade 4, all dose arms pooled | 0
60 mg once daily | adverse event grade 2 | 0
dose not given | adverse event grade 5, all dose arms pooled | 0
30 mg once daily | adverse event grade 2 | 0
60 mg once daily | adverse event grade 3 | 0

Study 2
Cell line: mouse MPNST tumor cells
Method: high-content immunofluorescence imaging
Measured: nuclear SOX9
Tested at: 10 µM
Time: 12 h
Notes: mean of 2 replicates
Reference: DMSO control
Direction: higher = more nuclear SOX9
SMILES | nuclear SOX9 intensity
C=C1C(=O)O[C@H]2[C@H]1CC/C(C)=C/CC[C@@]1(C)O[C@@H]21 | 148 % of DMSO
C#C[C@]1(O)CC[C@H]2[C@@H]3CCc4cc(O)ccc4[C@H]3CC[C@@]21C | 145 % of DMSO and 160 % of DMSO
CC(N/C(=N\C#N)Nc1ccncc1)C(C)(C)C (stereo not drawn) | 89.7 % of DMSO and 82 % of DMSO
NC[C@@H]1O[C@H](O[C@H]2[C@@H](O)[C@H](O[C@@H]3[C@@H](O)[C@H](N)C[C@H](N)[C@H]3O[C@H]3O[C@H](CO)[C@@H](O)[C@H](O)[C@H]3N)O[C@@H]2CO)[C@H](N)[C@@H](O)[C@@H]1O | 117 % of DMSO and 100 % of DMSO
CC=CC1=C(C(=O)O)N2C(=O)[C@@H](NC(=O)[C@H](N)c3ccc(O)cc3)[C@H]2SC1 | 87.4 % of DMSO
CC(C)(NS(=O)(=O)c1ccc(Oc2ccc(F)cc2)cc1)C(=O)NO | 110 % of DMSO
CCCc1cc(=O)[nH]c(=S)[nH]1 | 95.7 % of DMSO and 97.5 % of DMSO
O=C(O)COCCN1CCN(C(c2ccccc2)c2ccc(Cl)cc2)CC1 (stereo not drawn) | 101 % of DMSO

Mixed results
Substance | target | read-out | molecule type | tested at | measurement | value
COc1cccc(NC(=O)c2nc3scc(CN(C)Cc4ccccc4)c3c(=O)[nH]2)c1 | SLC6A3 (Homo sapiens, UniProt Q01959) | ligand displacement |  | 10 µM | inhibition | -7.85%
YSLEYFQF | HLA class I histocompatibility antigen, C alpha chain, allele C*04:01 (Homo sapiens, UniProt P10321) | peptide-MHC binding | peptide | concentration not given | binding | inactive

Some of these lines once more (study 1):
dose | notes | patients with aortic valve incompetence [%]
dose not given | adverse event grade 4, all dose arms pooled | 0
